Published values pooled from the literature.
Each line is one published result; not all experiments were run side by side. Values joined by “and” are separate records of one study, mostly repeats; a detail may differ. ± marks the error that the study gave.

For `C=CCn1c(=O)c2cnc(Nc3ccc(N4CCN(C)CC4)cc3)nc2n1-c1ccc2c(n1)[C@@](O)(CC)CC2`, “tumour volume difference” read 286 ± 11.1 mm3 (JIMT-1 xenograft, NOD/SCID mouse; oral, 60 mg/kg once daily for 28 days, day 29).
`N[C@@H](CC(=O)N1CCn2c(nnc2C(F)(F)F)C1)Cc1cc(F)c(F)cc1F` gave a waist circumference of 104 cm (type 2 diabetes patients on metformin; oral, 100 mg once daily, 28 weeks).
`C[C@H](Oc1ccc(Br)cc1-c1ccon1)C(=O)O`: “difference from placebo” -4.19 kg (peak grip force, handgrip dynamometry; healthy human; 50 mg, SAD).
`CN(C)C(=O)Oc1cccc([N+](C)(C)C)c1` has a twitch response of 0.174% and 1.9% and 5.15% and 4.43% (rat cisatracurium-induced neuromuscular block; 0.001 mg/kg).
For `CN(C)C(=O)c1cc2cnc(Nc3ccc(N4CCNCC4)cn3)nc2n1C1CCCC1`, “GSEA enrichment score” read 0.231 (RNA sequencing, refers to: HALLMARK_INTERFERON_ALPHA_RESPONSE; MB002 tumour; concentration not given; relative to: vehicle, direction not given).
`O=c1cc(-c2ccc(O)cc2)oc2c([C@@H]3OC[C@H](O)[C@H](O)[C@H]3O)c(O)c([C@@H]3O[C@H](CO)[C@@H](O)[C@H](O)[C@H]3O)c(O)c12`: IVRT “decreased” (HFpEF mice; oral, 20 and 40 mg/kg/day).
For `CN[C@@H]1COc2c(S(=O)(=O)NC(=O)Nc3c4c(cc5c3CCC5)CCC4)cnn2C1`, the inhibition was 101% (refers to: IL-18; human participants, whole blood ex vivo; 900 mg twice daily, multiple doses, 152 h, IL-18, circulating, adjusted for, added: LPS/ATP; relative to: baseline).
The ORR of `C=CC(=O)N1CCC(c2ccc(C(N)=O)c(-c3ccc(Oc4ccccc4)cc3)n2)CC1` is reported as 80.2% (tumour response, Lugano classification; patients with relapsed/refractory MCL; investigator assessed, 10.5 months follow-up).
`N#Cc1ccc2c(c1)[C@H]1CCCN(C(=O)c3ccc4[nH]cnc4c3)[C@H]1C2`: “total urinary corticosteroids” 125 % change (human, urine; 20 mg, 336 h, day 14 over day -1; relative to: placebo and baseline).
Under liver pathology, `CN1CC(Oc2cnc(C#N)cc2-c2ccn3nc(NC(=O)C4CC4)cc3c2)C1` is recorded as “decreased” (Rag2-/- mouse, anti-CD40 colitis; dose not given, day 7).
`OC(CCN1CCCCC1)(c1ccccc1)C1CC2C=CC1C2` (stereo not shown) — result for “power, theta EEG, Fz-Cz”: 2.8 µV² (resting-state EEG; healthy elderly humans; oral, 4 mg, eyes open, LS mean).
The PT Emax of `C[C@@H](NC(=O)N1C(=O)[C@H](Cc2ccnc(N)c2)[C@H]1C(=O)O)C1CCCCC1` is reported as 1.05 (human; iv infusion, 2.25 mg/kg/h, 24 h, unit not given; relative to: baseline).
For `O=C(O)CNC(=O)Cc1ccccc1`, the sarcomere length was 1.72 µm (ventricular cardiomyocytes, C57BL/6 mouse; dose not given, 0.748 s).
`O=C(OC(C(F)(F)F)C(F)(F)F)N1CCN(Cc2cccc(Oc3ccccc3)c2)CC1` — result for “volume of distribution”: 7.62 mL/cm3 (PET blocking study; rhesus monkey, brain thalamus; intravenous, 0.01 mg/kg, compound pretreatment, added: [18F]T-401 tracer).
`[Mn+2]`: “CD18-high cell fraction” 1.33 and 29.5 and 6.96 and 6.5 and 5.29 and 1.41 and 17.1 and 0.82 (flow cytometry; CD4-negative PBMC, BALB/c mouse; dose not given; relative to: no Mn2+).
For `C[C@H](CS)C(=O)N1CCC[C@H]1C(=O)O`, “extracellular enkephalin concentration” read 637 pM and 674 pM and 635 pM and 871 pM and 608 pM (inhibitor, LC-MS/MS, refers to: Met- or Leu-enkephalin; mouse striatal brain slices; 10 µM, 20 min, added: 50 mM KCl).
`COc1cc2cc(-c3ccc(CC(=O)Nc4cc(C(C)(C)C(F)(F)F)no4)cn3)cnc2cc1OC`: “partial response as best response” 29% (human RET-altered advanced solid tumours; dose not given, phase I total, RECIST 1.1).
`CCN(Cc1nc2c(N)nc3cc(-c4cc[nH]n4)ccc3c2[nH]1)C(C)=O`: “patients with increased cells” 56% (immunohistochemistry, refers to: NK cells; patients with advanced solid tumours, non-injected tumour lesions; dose not given, monotherapy).
For `CCOC(=O)[C@H](CCc1ccccc1)N[C@@H](C)C(=O)N1CCC[C@H]1C(=O)O`, heart rate read “no effect” (renal hypertensive rat; sc osmotic minipump, 40 mg/kg/day; relative to: vehicle).
For `O=C1Nc2cc3[nH]nc(-c4ccncc4)c3cc2CN1Cc1ccccc1`, “partial response, best response” read 0% (RECIST v1.1; human, relapsed or refractory advanced solid tumours; intravenous, 9.6 mg/kg, pooled schedules).
`COC(=O)CCc1ccc(OCC(O)CNC(C)C)cc1` (stereo not shown) — result for “heart rate change”: 2.3 beats/min (healthy male humans; dose not given, 5 min, added: saline; relative to: baseline).
The reduction of `FC(F)(F)CN1CC(n2cc(Oc3ccn4nc(Cl)cc4n3)cn2)C1` is reported as 66% (refers to: C26:0 fatty acid; Abcd1-/y mouse, spinal cord; feed, 100 mg/kg/day, 7 months).
For `Oc1ccc(Br)cc1C=NCCN1CCOCC1`, the inhibition was 29.9% (hydroxyl radical scavenging; 120 µM).
`C[C@H]1O[C@@H](O[C@H]2CC[C@@]3(C)[C@@H](CC[C@]4(C)[C@@H]3C=C[C@]35OC[C@@]6(CCC(C)(C)C[C@H]63)[C@@H](O)C[C@]54C)[C@]2(C)CO)[C@H](O)[C@@H](O[C@@H]2O[C@H](CO)[C@@H](O)[C@H](O)[C@H]2O)[C@H]1O`: “body weight change” -0.3 g and -0.1 g and -0.8 g and -0.4 g (chronic-plus-binge ethanol mice; oral, 15 mg/kg/day for 7 d, 168 h).
For `COc1ccccc1[C@H](Cn1c(=O)n(C(C)(C)C(=O)O)c(=O)c2c(C)c(-c3ncco3)sc21)OC1CCOCC1`, “fractional hepatic DNL” read 6.21 % new palmitate ([1-13C]acetate infusion, isotopomer analysis; overweight or obese healthy men, plasma VLDL-TG palmitate; oral, 200 mg single dose, 1 h post-dose, added: oral fructose).
`CC(C)c1c(C(=O)Nc2ccccc2)c(-c2ccccc2)c(-c2ccc(F)cc2)n1CC[C@@H](O)C[C@@H](O)CC(=O)O` has a total cholesterol of 86 mg/dL (cynomolgus monkey, female, serum; 40 mg/kg or 25 mg/kg, day 86, 2064 h).
The tumour volume of `COc1cc(N2CCC(N3CCN(C)CC3)CC2)ccc1Nc1ncc(Cl)c(Nc2ccccc2P(C)(C)=O)n1` is reported as 37.7 mm3 and 30.3 mm3 and 78 mm3 and 44.8 mm3 and 32.7 mm3 (nude mice, NCI-H3122 xenograft; intraperitoneal, 10 mg/kg every other day, day 1).
`N#Cc1ccc2c(-c3ccncc3)c(-c3ccc(F)cc3)nn2c1`: “log2 fold change” -0.493 (kinase binding, competitor, MIB/MS competition, refers to: KIN2; Candida albicans cell lysate; 1 µM; relative to: DMSO).
`CCc1c(C)nc(-c2ccc(Cl)s2)nc1Nc1ccc(CC(=O)O)cc1` — result for “Oil Red O staining”: “decreased” (mice, chronic ethanol plus binge, liver; intraperitoneal, 0.3 mg/kg daily, ethanol diet 4 weeks, dosed last two; relative to: vehicle).
`CC(C)[C@H](C(=O)Nc1ccc(C(=O)NO)cc1)c1ccccc1` — result for “tumour volume change”: -8.7% (volumetric MRI; human, left cistern meningioma; dose not given, day 23; relative to: baseline).
The progressive disease of `CCN1CCN(Cc2ccc(Nc3ncc(F)c(-c4cc(F)c5nc6n(c5c4)[C@H](C)CCC6)n3)nc2)CC1` is reported as 100% (human advanced solid tumours; 50 mg, phase Ia monotherapy RECIST 1.1).
`N#Cc1ccn2c(-c3ccncc3)c(-c3ccc(F)cc3)nc2c1`: “log2 fold change” 0.0181 (kinase binding, competitor, MIB/MS competition, refers to: RIM11; Candida albicans cell lysate; 1 µM; relative to: DMSO).
With `CC(C)NCC(O)c1ccc(O)c(O)c1` (stereo not shown) the sarcomere length was 1.51 µm (ventricular cardiomyocytes, C57BL/6 mouse; dose not given, 0.508 s).
`C[C@H]1C[C@H]2CSC(N)=N[C@@]2(c2nc(NC(=O)c3ccc(OC(F)F)cn3)cs2)CO1`: “percent change from baseline” -87.4% (refers to: Aβ1-40; healthy adults, plasma; 275 mg once daily, day 14; relative to: placebo).
The EC50 of `CC1(C)CCC(CN2CCN(c3ccc(C(=O)NS(=O)(=O)c4ccc(NCC5CCOCC5)c([N+](=O)[O-])c4)c(Oc4cnc5[nH]ccc5c4)c3)CC2)=C(c2ccc(Cl)cc2)C1` is reported as 37 nM (cell killing; primary canine neoplastic T cells, dog 16; 24 h).
`Cc1noc(C)c1-c1cc(C(O)(c2ccccn2)c2ccccn2)c2nc(C3CC3)[nH]c2c1` gave a maximum inhibition of 47.3% (refers to: CCR2 expression; human patients; dose not given, day 8, 192 h).
`CC(=O)NCC(=O)NCC(=O)N[C@H](C(=O)N[C@@H](Cc1ccc(O)cc1)C(=O)N[C@@H](CO)C(=O)N[C@H]1CSSC[C@@H](C(=O)N[C@@H](CCCNC(=N)N)C(=O)N2CCC[C@H]2C(=O)N[C@@H](CCC(N)=O)C(=O)N[C@@H](CCCNC(=N)N)C(=O)NCC(=O)NCCC(=O)N[C@@H](CCCCNC(=O)CN(CC(=O)NCCCC[C@H](NC(=O)CCNC(=O)CNC(=O)[C@H](CCCNC(=N)N)NC(=O)[C@H](CCC(N)=O)NC(=O)[C@@H]2CCCN2C(=O)[C@H](CCCNC(=N)N)NC(=O)[C@@H]2CSSC[C@H](NC(=O)[C@H](CO)NC(=O)[C@H](Cc3ccc(O)cc3)NC(=O)[C@@H](NC(=O)CNC(=O)CNC(C)=O)[C@@H](C)O)C(=O)N[C@@H](Cc3c[nH]cn3)C(=O)N[C@@H](Cc3ccccc3)C(=O)NCC(=O)N[C@@H](C)C(=O)N[C@@H](CC(C)C)C(=O)N[C@@H]([C@@H](C)O)C(=O)N[C@@H](Cc3c[nH]c4ccccc34)C(=O)N[C@@H](C(C)C)C(=O)N2)C(N)=O)C(=O)CCN)C(N)=O)NC(=O)[C@H](C(C)C)NC(=O)[C@H](Cc2c[nH]c3ccccc23)NC(=O)[C@H]([C@@H](C)O)NC(=O)[C@H](CC(C)C)NC(=O)[C@H](C)NC(=O)CNC(=O)[C@H](Cc2ccccc2)NC(=O)[C@H](Cc2c[nH]cn2)NC1=O)[C@@H](C)O` has a reticulocytes of 4% (healthy BALB/c mice; subcutaneous, 0.16 mg/kg, 14 d, single dose).
Under “decrease in serum uric acid”, `O=C(O)/C=C/c1nccc2c3ccccc3n(Cc3ccc(C4CC4)cc3)c12` is recorded as 69.4% (mouse, acute hyperuricaemia model; oral, 2 mg/kg).
`CC(F)(F)c1cc(F)ccc1-c1sc2cc(O)ccc2c1Oc1ccc(/C=C/C(=O)O)cc1` gave a partial response of 1.3% (RECIST v1.1, investigator-assessed; human, ER-positive breast cancer; dose not given, best overall response).
Under “log2 fold change”, `Cc1n[nH]c2ccc(-c3cc(OC[C@@H](N)Cc4ccccc4)cnc3-c3ccoc3)cc12` is recorded as -0.0805 (kinase binding, competitor, MIB/MS competition, refers to: KIN2; Candida albicans cell lysate; 100 nM; relative to: DMSO).
`O=C(COc1ccc(Cl)cc1)NC12CC(c3nnc([C@H]4C[C@@H](OC(F)(F)F)C4)o3)(C1)C2` — result for “mRNA level change”: -84.9% (refers to: CHAC1; PBMC ex vivo stimulated, human ALS patients; 200 mg, D28 predose; relative to: baseline).
`C[C@H](NC(=O)c1c(C(F)F)nn(C)c1Oc1cccc(C(F)(F)F)c1)c1ccc(C(=O)O)cc1`: “patients with stable disease” 25% (irRECIST best overall response; patients with advanced tumours; 250 mg).
`Cc1cc(-c2nnc(N)nc2-c2ccc(F)cc2)cc(Cl)n1` — result for “GSVA score change”: 0.152 (NanoString, refers to: IFNg.Fluidigm.Merck.IO signature; human mCRPC, peripheral blood; dose not given, 2 or 4 weeks; relative to: baseline, direction not given).
`c1ccc(-c2n[nH]cc2-c2ccnc3ccccc23)nc1`: “log2 fold change” 1.09 (kinase binding, competitor, MIB/MS competition, refers to: CKA1; Candida albicans cell lysate; 100 nM; relative to: DMSO).
Under “patients with blast reduction”, `CC(C)n1c(C2CCNCC2)nc2c([N+](=O)[O-])c(Br)c(Br)cc21` is recorded as 24% (patients with AML, bone marrow; all dose levels, ≥50% reduction from baseline).
`NC(=O)c1cnc2[nH]ccc2c1N[C@@H]1[C@@H]2CC3C[C@H]1C[C@@](O)(C3)C2` gave a percent change of -0.42% (regulatory T cells, flow cytometry; Caucasian humans, peripheral blood; 20 mg single dose; relative to: baseline).

Excerpt of the above:
`COC(=O)CCc1ccc(OCC(O)CNC(C)C)cc1` (stereo not shown) — result for “heart rate change”: 2.3 beats/min (healthy male humans; dose not given, 5 min, added: saline; relative to: baseline).
Under liver pathology, `CN1CC(Oc2cnc(C#N)cc2-c2ccn3nc(NC(=O)C4CC4)cc3c2)C1` is recorded as “decreased” (Rag2-/- mouse, anti-CD40 colitis; dose not given, day 7).
